Measurements pooled from the literature.
Numbered parts are unrelated; each lists some results of a single study.
Chain of UniProt P49137 (whole entry, looked up): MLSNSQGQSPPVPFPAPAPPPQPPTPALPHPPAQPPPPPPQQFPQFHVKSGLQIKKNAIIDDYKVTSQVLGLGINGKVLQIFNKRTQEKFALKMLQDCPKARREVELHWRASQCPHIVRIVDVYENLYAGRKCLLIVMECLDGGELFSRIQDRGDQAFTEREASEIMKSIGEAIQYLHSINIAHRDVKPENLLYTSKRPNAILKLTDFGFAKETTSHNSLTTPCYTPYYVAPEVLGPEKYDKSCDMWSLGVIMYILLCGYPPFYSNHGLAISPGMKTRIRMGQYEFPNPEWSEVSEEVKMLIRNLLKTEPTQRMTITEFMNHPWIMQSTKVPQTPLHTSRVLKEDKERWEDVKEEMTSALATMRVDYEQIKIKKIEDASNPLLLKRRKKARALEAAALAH
Chain of UniProt P11362 (whole entry, looked up): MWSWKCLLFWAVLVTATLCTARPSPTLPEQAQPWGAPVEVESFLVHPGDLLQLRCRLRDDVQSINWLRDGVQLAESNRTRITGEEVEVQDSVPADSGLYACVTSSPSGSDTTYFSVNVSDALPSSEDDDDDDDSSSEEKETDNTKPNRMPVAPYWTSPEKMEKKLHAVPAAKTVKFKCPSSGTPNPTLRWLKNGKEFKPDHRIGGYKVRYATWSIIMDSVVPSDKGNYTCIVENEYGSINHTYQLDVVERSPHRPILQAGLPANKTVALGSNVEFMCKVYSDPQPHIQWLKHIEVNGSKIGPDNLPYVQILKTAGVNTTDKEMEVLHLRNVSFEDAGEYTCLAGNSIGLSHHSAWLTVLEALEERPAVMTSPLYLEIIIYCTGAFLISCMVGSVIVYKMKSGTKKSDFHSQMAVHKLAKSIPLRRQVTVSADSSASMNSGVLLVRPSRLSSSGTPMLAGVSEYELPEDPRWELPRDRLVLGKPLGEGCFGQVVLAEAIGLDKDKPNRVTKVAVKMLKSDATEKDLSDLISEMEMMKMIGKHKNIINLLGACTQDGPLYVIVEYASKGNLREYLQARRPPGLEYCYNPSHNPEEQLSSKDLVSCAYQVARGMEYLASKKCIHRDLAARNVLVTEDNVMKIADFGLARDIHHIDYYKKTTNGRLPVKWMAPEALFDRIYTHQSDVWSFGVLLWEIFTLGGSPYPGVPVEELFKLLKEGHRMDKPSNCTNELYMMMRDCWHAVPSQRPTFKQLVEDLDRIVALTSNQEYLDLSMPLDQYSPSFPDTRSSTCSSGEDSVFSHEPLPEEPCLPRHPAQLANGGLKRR
Chain of UniProt Q9UL54 (whole entry, looked up): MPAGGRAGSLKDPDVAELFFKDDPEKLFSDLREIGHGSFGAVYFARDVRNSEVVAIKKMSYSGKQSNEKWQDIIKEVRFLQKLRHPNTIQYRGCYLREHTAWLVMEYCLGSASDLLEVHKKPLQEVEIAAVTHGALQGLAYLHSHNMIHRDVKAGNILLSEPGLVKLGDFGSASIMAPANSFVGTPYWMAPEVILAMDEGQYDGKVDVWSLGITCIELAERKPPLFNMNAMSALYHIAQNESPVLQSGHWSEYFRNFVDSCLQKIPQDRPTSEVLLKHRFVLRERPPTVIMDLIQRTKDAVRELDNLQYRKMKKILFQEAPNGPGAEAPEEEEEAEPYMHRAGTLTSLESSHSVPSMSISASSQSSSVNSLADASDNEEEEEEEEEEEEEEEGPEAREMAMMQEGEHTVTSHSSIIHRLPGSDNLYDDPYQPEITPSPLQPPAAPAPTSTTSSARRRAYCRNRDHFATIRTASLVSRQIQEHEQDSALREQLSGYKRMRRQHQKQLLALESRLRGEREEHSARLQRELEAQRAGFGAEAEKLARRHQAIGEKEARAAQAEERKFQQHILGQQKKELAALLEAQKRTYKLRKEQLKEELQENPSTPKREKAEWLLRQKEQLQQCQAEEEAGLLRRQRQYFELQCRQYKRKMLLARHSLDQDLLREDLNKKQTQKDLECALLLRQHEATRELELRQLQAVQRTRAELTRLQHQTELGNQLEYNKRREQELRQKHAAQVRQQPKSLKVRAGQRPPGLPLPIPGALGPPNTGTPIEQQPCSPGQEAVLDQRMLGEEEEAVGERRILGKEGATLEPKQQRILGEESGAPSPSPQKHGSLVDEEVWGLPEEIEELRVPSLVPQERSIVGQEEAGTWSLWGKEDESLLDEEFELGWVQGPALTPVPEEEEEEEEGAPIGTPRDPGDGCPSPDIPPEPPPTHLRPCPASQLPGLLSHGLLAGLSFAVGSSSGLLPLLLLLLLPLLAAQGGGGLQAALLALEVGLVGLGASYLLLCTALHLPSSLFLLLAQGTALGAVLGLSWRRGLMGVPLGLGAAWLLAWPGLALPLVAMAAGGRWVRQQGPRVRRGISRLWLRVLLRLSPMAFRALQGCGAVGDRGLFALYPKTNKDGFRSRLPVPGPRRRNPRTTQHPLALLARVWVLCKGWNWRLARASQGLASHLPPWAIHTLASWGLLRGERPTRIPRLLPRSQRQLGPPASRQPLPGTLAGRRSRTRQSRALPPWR
Chain of UniProt P36507 (whole entry, looked up): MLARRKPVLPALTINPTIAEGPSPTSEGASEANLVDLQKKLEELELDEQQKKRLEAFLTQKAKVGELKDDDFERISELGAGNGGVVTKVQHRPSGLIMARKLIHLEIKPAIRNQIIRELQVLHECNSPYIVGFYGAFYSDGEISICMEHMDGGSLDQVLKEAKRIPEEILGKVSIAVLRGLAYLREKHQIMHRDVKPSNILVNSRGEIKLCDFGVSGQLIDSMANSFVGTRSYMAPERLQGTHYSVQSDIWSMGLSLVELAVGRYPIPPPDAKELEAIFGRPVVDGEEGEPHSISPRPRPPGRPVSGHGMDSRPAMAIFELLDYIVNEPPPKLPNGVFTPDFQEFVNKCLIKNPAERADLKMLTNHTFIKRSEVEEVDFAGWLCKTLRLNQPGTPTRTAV
Chain of UniProt P78368 (whole entry, looked up): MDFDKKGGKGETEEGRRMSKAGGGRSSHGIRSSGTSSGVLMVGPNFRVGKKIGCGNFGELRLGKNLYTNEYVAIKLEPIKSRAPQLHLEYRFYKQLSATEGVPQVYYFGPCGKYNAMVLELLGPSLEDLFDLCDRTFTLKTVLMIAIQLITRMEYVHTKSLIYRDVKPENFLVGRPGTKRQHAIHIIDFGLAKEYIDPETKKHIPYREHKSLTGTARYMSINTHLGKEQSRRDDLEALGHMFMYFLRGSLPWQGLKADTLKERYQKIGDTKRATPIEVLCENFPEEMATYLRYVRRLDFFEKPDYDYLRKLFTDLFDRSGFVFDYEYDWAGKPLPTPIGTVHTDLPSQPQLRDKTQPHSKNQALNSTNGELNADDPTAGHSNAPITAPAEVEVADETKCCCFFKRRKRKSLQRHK
Chain of UniProt Q9HC98 (whole entry, looked up): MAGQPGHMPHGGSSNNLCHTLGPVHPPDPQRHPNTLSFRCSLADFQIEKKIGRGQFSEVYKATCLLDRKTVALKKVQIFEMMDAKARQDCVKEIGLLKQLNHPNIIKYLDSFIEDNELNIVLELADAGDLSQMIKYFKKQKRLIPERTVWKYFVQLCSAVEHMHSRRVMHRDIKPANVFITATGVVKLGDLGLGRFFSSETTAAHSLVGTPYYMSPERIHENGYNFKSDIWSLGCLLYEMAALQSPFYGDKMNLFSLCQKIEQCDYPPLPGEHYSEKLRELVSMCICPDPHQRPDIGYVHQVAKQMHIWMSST

Block 1
Compound: N/C(=N\[N+](=O)[O-])N/N=C\c1ccc(-c2cccc([N+](=O)[O-])c2)o1
Observed: enzyme activity
Mode: inhibitor
Tested at: 0.5 µM
Measurement: remaining activity
DYRK1B (Homo sapiens, UniProt Q9Y463); radiometric: 104%
FGFR3 (Homo sapiens, UniProt P22607); baseline: control: 99.6%
ABL2 (Homo sapiens, UniProt P42684); baseline: control: 95.7%
MAP3K14 (Homo sapiens, UniProt Q99558); baseline: control: 77.9%
EPHA3 (Homo sapiens, UniProt P29320); baseline: control: 99.3%
TAOK2 (Homo sapiens, UniProt Q9UL54); baseline: control: 95.3%
MAP2K2 (Homo sapiens, UniProt P36507); baseline: control: 78.2%
FGFR1 (Homo sapiens, UniProt P11362); baseline: control: 97.6%
MAPKAPK2 (Homo sapiens, UniProt P49137); baseline: control: 96.3%
NEK6 (Homo sapiens, UniProt Q9HC98); baseline: control: 93.4%
MERTK (Homo sapiens, UniProt Q12866); baseline: control: 92.3%
FRK (Homo sapiens, UniProt P42685); baseline: control: 90.1%
CSNK1G3 (Homo sapiens, UniProt Q9Y6M4); baseline: control: 86.2%
CSNK1G2 (Homo sapiens, UniProt P78368); baseline: control: 101%

Block 2
Cell line: HaCaT
Tested at: 100 µM
Time: 18 h
Measurement: viability
C[C@H]1CNCCc2ccc(Cl)cc21: 110%
NC(=O)CN1CCCC1=O: 94.3%
CN1C[C@H](C(=O)N[C@]2(C)O[C@@]3(O)[C@@H]4CCCN4C(=O)[C@H](Cc4ccccc4)N3C2=O)C=C2c3cccc4[nH]cc(c34)C[C@H]21: 62.1%

Block 3
Target: Calcium/calmodulin-dependent protein kinase type II subunit alpha (CAMK2A, Homo sapiens, UniProt Q9UQM7)
Chain of UniProt Q9UQM7 (whole entry, looked up): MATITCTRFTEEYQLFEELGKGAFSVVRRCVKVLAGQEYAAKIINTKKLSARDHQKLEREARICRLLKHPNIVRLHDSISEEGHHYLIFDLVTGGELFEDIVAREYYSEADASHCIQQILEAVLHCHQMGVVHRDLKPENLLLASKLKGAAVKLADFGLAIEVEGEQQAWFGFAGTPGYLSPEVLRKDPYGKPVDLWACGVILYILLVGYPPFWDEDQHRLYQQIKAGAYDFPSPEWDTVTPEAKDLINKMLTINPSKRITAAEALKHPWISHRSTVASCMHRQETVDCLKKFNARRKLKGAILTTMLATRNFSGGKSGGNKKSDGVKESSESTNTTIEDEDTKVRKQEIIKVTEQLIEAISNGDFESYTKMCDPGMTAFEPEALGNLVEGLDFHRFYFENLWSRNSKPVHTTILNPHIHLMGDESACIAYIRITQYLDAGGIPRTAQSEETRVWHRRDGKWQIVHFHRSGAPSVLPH
Observed: enzyme activity
Mode: inhibitor
Tested at: 10 µM
Measurement: inhibition
NC(=O)[C@H](Cc1ccccc1)NC(=O)[C@H](Cc1c[nH]c2ccccc12)NC(=O)[C@@H]1CCCN1C(=O)[C@@H](N)Cc1ccc(O)cc1: 20%
COc1ccc2c3c1O[C@H]1C[C@@H](O)CC[C@@]31CCN(C)C2: -54%
c1ccc2c(c1)ccc1c3ccccc3ccc21: 17%
CC(C)N(CCC(C(N)=O)(c1ccccc1)c1ccccn1)C(C)C (centres unmarked): -8%

Other studies, line by line
CRK2: Cyclin-dependent kinase 2 homolog (CRK2, Plasmodium falciparum, UniProt P61075)
Chain of UniProt P61075 (whole entry, looked up): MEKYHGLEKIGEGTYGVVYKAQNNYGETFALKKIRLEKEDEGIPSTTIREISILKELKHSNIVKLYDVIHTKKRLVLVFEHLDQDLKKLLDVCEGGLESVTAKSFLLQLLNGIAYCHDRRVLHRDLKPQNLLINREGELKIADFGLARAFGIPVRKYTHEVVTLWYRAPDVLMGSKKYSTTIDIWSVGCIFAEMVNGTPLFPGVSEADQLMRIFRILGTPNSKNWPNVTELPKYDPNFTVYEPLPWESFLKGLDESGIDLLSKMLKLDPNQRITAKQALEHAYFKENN
COc1ccc2c(O[C@@H]3C[C@H]4C(=O)N[C@]5(C(=O)O)CC5/C=C\CCCCC[C@H](NC(=O)OC5CCCC5)C(=O)N4C3)cc(-c3csc(NC(=O)C(C)C)n3)nc2c1C (some centres unmarked) — remaining binding (CRK2; cell-free assay, competition with immobilised ligand; 1 µM): 83%
FC(F)(F)c1cccc(N2CCNCC2)c1 — inhibition (Sarcocystis neurona; parasite growth; 10 µM, 96 h, secondary screen): -45.1%
c1ccc2c(c1)CNC(c1ccc3c(c1)OCO3)c1cccn1-2 (centres unmarked) — remaining compound (mouse, microsomes or S9; 2 µM, 0.5 h): 0.258%
CN(C(=O)Oc1nsnc1N1CCOCC1)C1CCCCCCC1 — nuclear SOX9 intensity (mouse MPNST tumor cells; high-content immunofluorescence imaging, measured: nuclear SOX9; 10 µM, 12 h, mean of 2 replicates; baseline: DMSO control, higher = more nuclear SOX9): 94 % of DMSO
CN[C@@H]1C[C@H]2O[C@@](C)([C@@H]1OC)n1c3ccccc3c3c4c(c5c6ccccc6n2c5c31)C(=O)NC4 — viability (normal-adjacent organoid sample G; CellTiter-Glo; 1 µM, replicate mean; baseline: DMSO): 3.3%
C=CCCC(CN1C[C@H]2CC=CC[C@H]2C1)Oc1ncc(Cl)cn1 (some centres unmarked) — remaining compound (mouse, microsomes or S9; 2 µM, 0.5 h): 0.0378%
CCCOc1ccc2[nH]cc(C3=CCNCC3)c2n1 — nuclear SOX9 intensity (mouse MPNST tumor cells; high-content immunofluorescence imaging, measured: nuclear SOX9; 10 µM, 12 h, mean of 2 replicates; baseline: DMSO control, higher = more nuclear SOX9): 117 % of DMSO
CNC(=O)Nc1ccc2c(c1)[C@@]1(CC2)OC(=O)N(CC(=O)N(Cc2ccc(F)cc2)[C@@H](C)C(F)(F)F)C1=O — remaining binding (CRK2; cell-free assay, competition with immobilised ligand; 1 µM): 95%
